Published values gathered from unrelated publications.
Each numbered part is a random draw from the data of one study; scales do not carry over between parts. Positions count from the first letter of the parent shown.

Block 1
Target: Histone acetyltransferase KAT6A, winged helix 2, GST fusion (KAT6A, Homo sapiens, UniProt Q92794, residues 85-181)
Method: protein binding microarray
Molecule type: double-stranded DNA, one strand shown
Sample: in vitro
Concentration: not given
Setting: 8-mer, flanks averaged, mean of 2 arrays, mostly near background
Relative to: not given
Reading: higher = stronger binding
Residues (chain): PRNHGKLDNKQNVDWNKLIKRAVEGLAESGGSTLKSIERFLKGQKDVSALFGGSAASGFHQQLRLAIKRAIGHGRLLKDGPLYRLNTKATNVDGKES
Sequence | E-score
CAGGGTTC | 0.0169
CATGGCAA | 0.0512
CGCGCGAC | 0.13
ATTTAAGA | 0.0144
CGAGCGCA | 0.161
CTAACAGA | 0.0167
GTTGGGGA | 0.0524
ATCAGCTG | 0.116
AAATAGGA | -0.115
GATGACTA | -0.15
AACTATAA | -0.121
CGATGATA | 0.155
ATTCGTAA | -0.0753
AGATCGAA | 0.168
AATCGTAG | -0.0673
CTTCACAA | -0.155
AGATTTAG | 0.126

Block 2
Target: CCNA1, cyclin fold, Cln2 fusion (human)
Method: yeast growth competition, sequencing
Sample: yeast
Setting: weak parent motif
Relative to: not given
Reading: higher = stronger binding
Parent: PKN2 docking peptide (human); DSTVTKLDFDLEP
Substitution | normalised enrichment score
S2A | -0.495
P13A | -0.18
T5A | -0.283
L7A | -0.105
E12A | -0.269
V4A | 0.00552

Block 3
Target: ABI1, truncated, D143A, DHFR fusion (Arabidopsis thaliana)
Method: DHFR PCA, deep sequencing
Sample: yeast
Setting: methotrexate growth selection, single substitutions
Together with: (+)-ABA 0 µM
Relative to: wild-type fitted maximum
Reading: higher = stronger binding
Parent: PYL1, truncated, DHFR fusion (Arabidopsis thaliana); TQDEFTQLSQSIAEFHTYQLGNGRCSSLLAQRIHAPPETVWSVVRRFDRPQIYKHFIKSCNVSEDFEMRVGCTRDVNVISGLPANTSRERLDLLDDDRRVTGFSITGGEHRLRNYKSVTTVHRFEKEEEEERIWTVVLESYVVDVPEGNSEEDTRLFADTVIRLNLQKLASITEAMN
Substitution | relative binding score
T1G | 18.2%
E139G | 0.769%
E109R | -3.01%
T120P | 0.11%
A35T | -0.373%
K58R | 19.5%
I12L | 0.57%
N114G | 8.23%
E14P | -2.19%
A84E | 22.4%
E128K | 22.3%
T73N | 11.4%
V118F | 4.28%
R98V | -0.461%

Block 4
Target: Sal-like protein 4, full length isoform B (SALL4, Homo sapiens, UniProt Q9UJQ4-2, residues 1-616)
Method: universal PBM
Molecule type: double-stranded DNA, one strand shown
Sample: in vitro
Concentration: not given
Setting: 8-mer, flanks averaged, mean of replicates
Reading: higher = stronger binding
Sequence | E-score
CAAGGCAG | -0.0818
AGGGCGAT | -0.117
AGTCTTCC | -0.132
AATGCGAC | -0.0788
CGTTGCCA | 0.0351
ATACGCAT | 0.159
AAGTAACT | 0.142
GCGCTACC | -0.213
AATCTTCT | 0.0138
CCGCTAGA | -0.202
ACCAAGAG | -0.129
TACGCAGA | 0.0648
AATACCGT | 0.157
ACTAATCT | 0.0584
GTTTGTGA | 0.0157
ACTAGGAA | 0.0792
CAGCGTTA | -0.0731
GACCAATC | -0.0843
ACCGGACC | -0.298
TACAGTAA | 0.316
GCTCTCAC | -0.25
ACAATGAG | 0.0898
AGTAGACC | -0.0758
CCAACCCG | -0.346
CCTACAAA | 0.114

Block 5
Target: Phosphate system positive regulatory protein PHO4, full length, GST-tagged (PHO4, Saccharomyces cerevisiae, UniProt P07270, residues 1-312)
UniProt P07270, sequence (whole entry, looked up): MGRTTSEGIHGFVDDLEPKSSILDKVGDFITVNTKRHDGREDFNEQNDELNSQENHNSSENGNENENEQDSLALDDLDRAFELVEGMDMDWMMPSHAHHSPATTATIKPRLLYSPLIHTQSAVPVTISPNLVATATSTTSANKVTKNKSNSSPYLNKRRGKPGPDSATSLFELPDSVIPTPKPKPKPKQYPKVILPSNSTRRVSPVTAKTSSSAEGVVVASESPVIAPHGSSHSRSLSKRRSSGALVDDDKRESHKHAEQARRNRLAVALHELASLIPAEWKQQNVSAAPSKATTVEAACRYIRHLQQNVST
Method: competition protein-binding microarray
Molecule type: double-stranded DNA, one strand shown
Sample: in vitro
Concentration: 2 µM
Setting: whole 60-bp probe, lowest competitor level
Together with: Cbf1 competitor, 0.05 µM
Reading: higher = stronger binding
Sequence | fluorescence intensity
AAATTACTAAGTTGTACGGTGGGTGACGCCGTATGAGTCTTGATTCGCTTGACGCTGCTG | 4360 a.u.
GAGTCGTCATCCAACCTCGTGATGGAGGTTTTCAGTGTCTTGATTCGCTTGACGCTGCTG | 10500 a.u.
TGTAGTGGCAGTTTGCACGGGGTTTCCTGTGCCTTAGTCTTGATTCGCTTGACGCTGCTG | 7850 a.u.
TCGTACCGAGTGATGAACGTGGTGATGAACACCTTGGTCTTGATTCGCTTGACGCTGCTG | 10500 a.u.
GGGATCGAAAGAAGGGGCGTGGTGAGAAGGGTAACGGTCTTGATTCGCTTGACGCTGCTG | 9400 a.u.
TACTCAGAATATGAAAACGTGTCGGACGGGGATGACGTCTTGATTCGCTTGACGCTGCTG | 15600 a.u.
TAGCCTTAAATCCTGAACGTGGAGGCGATTATTTCAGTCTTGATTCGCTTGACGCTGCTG | 11800 a.u.
AAAGCGGTAATTTGAAAAGTGGGTGCAGATATCTATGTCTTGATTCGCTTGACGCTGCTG | 4200 a.u.
AAAGCGGTAATTTGTTGAGTGGGTGCAGATATCTATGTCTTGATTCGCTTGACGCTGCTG | 4620 a.u.
AAGCTCGTTGGTTTGCACGTATCTTAGGCTTCACTAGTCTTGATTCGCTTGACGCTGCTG | 5640 a.u.
CTTCTCTTTCCCACCACCGTGGGTATCCTTTTTCTTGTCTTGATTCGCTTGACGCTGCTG | 8630 a.u.
ACAGCCGCGGTTGGGTGCGTGGGTACGGTAATTTAAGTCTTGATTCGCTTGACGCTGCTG | 9620 a.u.
TATCTCTGATGTTTGCACGTGCTTTAGCAACTCTTTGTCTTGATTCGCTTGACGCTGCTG | 19600 a.u.
CTGTTTCCATTTTGCCGCGTGGAGGCATCTGTCCAAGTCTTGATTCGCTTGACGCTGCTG | 9650 a.u.
TCGCGAAGGCTAAGCCATGTGCTGTTACCCCTGCTGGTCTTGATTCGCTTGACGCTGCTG | 10500 a.u.
CCATGGATGAAGTGTATTATAAATTTGGGTTAGGCAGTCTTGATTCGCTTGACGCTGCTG | 3480 a.u.
GGATGAAAAACATAAAATGTGACGGATAGTGCCACCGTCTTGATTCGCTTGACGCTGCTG | 5210 a.u.
GCATCCACAACCGCTCTCGTGGAACCAAACGAAGATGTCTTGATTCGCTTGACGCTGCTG | 5870 a.u.
CTTCTGTAAATTTGTCACGTAACTTGACGCGCCCCGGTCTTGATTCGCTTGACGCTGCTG | 5030 a.u.
GCAAATCCTCCCACACATGTGACGCTTTGAATCAAGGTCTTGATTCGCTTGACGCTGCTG | 10300 a.u.

Block 6
Target: CREB3L2, bZIP domain (human)
Method: DHFR protein complementation
Sample: yeast
Setting: single substitutions, most at no-binding floor
Relative to: wild-type JUN-FOS pair
Reading: higher = stronger binding
Parent: JUN, bZIP domain (human); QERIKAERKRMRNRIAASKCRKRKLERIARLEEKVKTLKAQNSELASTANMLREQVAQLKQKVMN; partner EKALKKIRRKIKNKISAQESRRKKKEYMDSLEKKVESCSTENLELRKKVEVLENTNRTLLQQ
Substitution | binding fitness [natural log]
N42L | -1.53
E44Y | -1.45
I28R | -1.47
M51H | -1.52
R53H | -1.31
L38N | -1.53
L45W | -1.43
R30F | -1.2
A40F | -1.52
R30T | -1.37
K36W | -1.52
T48D | -1.06
R53P | -1.55

Block 7
Target: Interferon regulatory factor 7, full length, phosphomimetic (IRF7, Homo sapiens, UniProt Q92985, residues 1-503, S101K/S471D/S472D/S475D/S476D/S477D/S483D/S484D/S487D)
Method: protein-binding microarray
Molecule type: double-stranded DNA, one strand shown
Sample: in vitro
Concentration: 250 nM
Setting: 60-bp whole probe
Together with: salmon DNA 0.4 mg/ml
Relative to: random background probes
Reading: higher = stronger binding
All sequences stand within: GCCTAGCAC … GTCTTGATTCGCTTGACGCTGCTG
Target sequence (chain): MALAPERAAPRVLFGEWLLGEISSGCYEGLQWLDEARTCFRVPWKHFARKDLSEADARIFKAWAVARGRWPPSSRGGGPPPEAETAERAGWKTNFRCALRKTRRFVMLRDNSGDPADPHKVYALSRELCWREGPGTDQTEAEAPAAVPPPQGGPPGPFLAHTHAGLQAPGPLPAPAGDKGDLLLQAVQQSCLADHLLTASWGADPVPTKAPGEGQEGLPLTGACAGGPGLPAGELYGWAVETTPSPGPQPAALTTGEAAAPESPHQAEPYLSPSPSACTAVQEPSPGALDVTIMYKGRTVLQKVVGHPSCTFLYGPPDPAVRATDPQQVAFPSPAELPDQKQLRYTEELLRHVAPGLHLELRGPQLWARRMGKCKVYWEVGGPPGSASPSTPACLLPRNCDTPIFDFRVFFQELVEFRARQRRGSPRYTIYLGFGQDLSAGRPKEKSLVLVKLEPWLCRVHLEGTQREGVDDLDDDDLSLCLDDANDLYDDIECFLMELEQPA
Sequence | log fluorescence [z-score]
GACTGTTCCGGTTTCGGGACGTGCTAG | 5.31
TCAGTTCTCAGCTTGGGACTGTGCTAG | 1.3
GACGGTTTCAACTATCGGGACGTGCTA | 0.437
TTAGATCTCAGACTCGATTAGTGCTAG | 1.11
TGAGATATCAGACTGGATTAGTGCTAG | -0.343
TGTTTTTGCTTTCTTTTTGCGTGCTAG | 3.67
GACGGACTGGGTATCGGTACGTGCTAG | -0.164
TTAGGACTCCTTTTCCTTTAGTGCTAG | 1.58
TTAGTTATCCTACTGCTTTAGTGCTAG | 0.686
GACGATTTCGAGTATCGAGACGTGCTA | 0.869
TTGCCTCACCTCACCTGTCCGTGCTAG | 1.07
CTAGAACTGGGGACTGGATTAGTGCTA | -0.222
TTAGATTCCGGGTATCGATTAGTGCTA | 2.04
TTAGGTTTCAGGACTGGGTTAGTGCTA | 0.5
TCAGGTATCCTTTTCCTTTAGTGCTAG | 1.85
TCAGGACTGGACACTGGGTTAGTGCTA | -0.831
GACGGTATCCTTATCCTGACGTGCTAG | 0.248
GACGGTTGCCTTTTCCTGACGTGCTAG | 0.277
TTAGAACTGGGGTTTCGATGAGTGCTA | 0.803
GACGGTTTCGGTTTCGGCACGTGCTAG | 13.7
TTAGGACTGGTGACTGGGTTAGTGCTA | -0.88
TTAGTTTTCGGACTGGGTTAGTGCTAG | 1.16
TTAGGTCTCCTACTGATTTAGTGCTAG | -0.208
GACGGTCTCGGGCTCGGGACGTGCTAG | 0.168
TTAGAACTGAAACTGGATTAGTGCTAG | 0.516

Repeated from above (block 5):
Sequence | fluorescence intensity
ACAGCCGCGGTTGGGTGCGTGGGTACGGTAATTTAAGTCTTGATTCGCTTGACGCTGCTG | 9620 a.u.
TATCTCTGATGTTTGCACGTGCTTTAGCAACTCTTTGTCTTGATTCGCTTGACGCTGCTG | 19600 a.u.
CTGTTTCCATTTTGCCGCGTGGAGGCATCTGTCCAAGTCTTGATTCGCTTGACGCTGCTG | 9650 a.u.
TCGCGAAGGCTAAGCCATGTGCTGTTACCCCTGCTGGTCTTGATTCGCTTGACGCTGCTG | 10500 a.u.
CCATGGATGAAGTGTATTATAAATTTGGGTTAGGCAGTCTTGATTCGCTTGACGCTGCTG | 3480 a.u.
GGATGAAAAACATAAAATGTGACGGATAGTGCCACCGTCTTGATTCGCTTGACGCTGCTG | 5210 a.u.
GCATCCACAACCGCTCTCGTGGAACCAAACGAAGATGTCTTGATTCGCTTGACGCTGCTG | 5870 a.u.
CTTCTGTAAATTTGTCACGTAACTTGACGCGCCCCGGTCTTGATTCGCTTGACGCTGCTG | 5030 a.u.
